Results from different studies.
Each line is one published result; not all experiments were run side by side. Changes are numbered by the printed parent chain.
P1: CVP-214; VVPGLKPFV
Sequence of UniProt Q0JQF7 (whole entry, looked up): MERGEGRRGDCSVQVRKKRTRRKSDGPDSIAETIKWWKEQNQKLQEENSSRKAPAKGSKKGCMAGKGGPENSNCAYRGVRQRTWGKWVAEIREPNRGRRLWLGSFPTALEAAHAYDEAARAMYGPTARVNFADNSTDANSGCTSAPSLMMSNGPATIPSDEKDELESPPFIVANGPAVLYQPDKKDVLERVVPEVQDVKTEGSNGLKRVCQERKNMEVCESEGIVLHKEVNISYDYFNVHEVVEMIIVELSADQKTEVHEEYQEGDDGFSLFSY
Sequence of UniProt Q9BRJ7 (whole entry, looked up): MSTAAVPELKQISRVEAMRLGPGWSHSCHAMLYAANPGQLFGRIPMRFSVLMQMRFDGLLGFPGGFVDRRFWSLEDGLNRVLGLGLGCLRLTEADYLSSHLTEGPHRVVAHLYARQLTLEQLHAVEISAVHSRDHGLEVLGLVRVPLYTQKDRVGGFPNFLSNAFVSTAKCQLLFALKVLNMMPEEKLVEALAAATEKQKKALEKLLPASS
Sequence of UniProt P15976 (whole entry, looked up): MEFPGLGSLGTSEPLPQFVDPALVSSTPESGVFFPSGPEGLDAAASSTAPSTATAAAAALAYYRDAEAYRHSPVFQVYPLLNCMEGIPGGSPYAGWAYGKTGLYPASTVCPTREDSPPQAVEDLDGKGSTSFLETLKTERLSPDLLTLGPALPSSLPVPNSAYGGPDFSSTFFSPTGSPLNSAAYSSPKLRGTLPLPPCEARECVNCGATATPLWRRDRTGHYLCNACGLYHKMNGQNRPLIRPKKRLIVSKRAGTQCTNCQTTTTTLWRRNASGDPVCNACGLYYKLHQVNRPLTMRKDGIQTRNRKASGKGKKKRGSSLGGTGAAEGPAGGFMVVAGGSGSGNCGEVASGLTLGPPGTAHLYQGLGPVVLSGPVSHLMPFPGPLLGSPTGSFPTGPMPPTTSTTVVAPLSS

Molecule = UGGUACUGGGAGGGAUGAGGGUGAAGAAGGGGAGAGGGUUGG (ssRNA); tested on = NUDT16L1 full length assumed (Homo sapiens, UniProt Q9BRJ7); test = fluorescence polarization; test system = RNA; endpoint = Kd; value = 0.35 µM
Molecule = P1 F8A; tested on = MFN2 near-full-length del605-647, (SAA)5 linker replacing 605-647 (Homo sapiens); test = field-effect biosensing; endpoint = Kd; value = 14000 µM
Molecule = CCAGGCAGATAAGGAACAAC (ssDNA); tested on = GATA1 200-311 (Homo sapiens, UniProt P15976); test = fluorescence anisotropy; test system = single-stranded DNA; endpoint = Kd; value = < 11 µM
Molecule = GCCGACGCCGACGCCGACGCCGACGCCGAC (dsDNA); tested on = DREB2A 1-274 (Oryza sativa, UniProt Q0JQF7); test = EMSA; test system = double-stranded DNA, one strand shown; endpoint = binding; value = binds
Molecule = insulin icodec; test system = human severe hepatic impairment (Child-Pugh C), serum; conditions = subcutaneous, 1.5 U/kg single dose; how to read = relative to: severe impairment over normal function; endpoint = AUC(0-inf) ratio; value = 0.97

Excerpt of the above:
Molecule = P1 F8A; tested on = MFN2 near-full-length del605-647, (SAA)5 linker replacing 605-647 (Homo sapiens); test = field-effect biosensing; endpoint = Kd; value = 14000 µM
